Assay results of several laboratories.
Every numbered part comes from another study and shows a few of its results, in no order. Changes are numbered by the printed parent chain.

Sample 1 — target: CCNA2, cyclin fold, Cln2 fusion (human); technique: yeast growth competition, sequencing; medium: yeast; setting: strong parent motif; reference: not given; direction: higher = stronger binding; starting sequence: viral docking peptide; YKVKRRLVFGADD
Change	normalised enrichment score
F9W	6.17
K2R	6.49
K4H	5.87
K4F	3.98
L7R	0.545
R5P	0.255
D12M	6.55
D12T	6.65
A11L	6.3
R6F	2.51
K4R	6.49
K4T	4.88
R5N	1.08
R6L	3.68
K2D	5.75
F9E	-0.0654
R5L	2.26
V3E	0.796

Sample 2 — observed: phage display binding; technique: phage display panning NGS; form: peptide; setting: panning round 3; reference: OGT-panned over input library
Target: UDP-N-acetylglucosamine--peptide N-acetylglucosaminyltransferase 110 kDa subunit (OGT, Homo sapiens, UniProt O15294)
Sequence of UniProt O15294 (whole entry, looked up): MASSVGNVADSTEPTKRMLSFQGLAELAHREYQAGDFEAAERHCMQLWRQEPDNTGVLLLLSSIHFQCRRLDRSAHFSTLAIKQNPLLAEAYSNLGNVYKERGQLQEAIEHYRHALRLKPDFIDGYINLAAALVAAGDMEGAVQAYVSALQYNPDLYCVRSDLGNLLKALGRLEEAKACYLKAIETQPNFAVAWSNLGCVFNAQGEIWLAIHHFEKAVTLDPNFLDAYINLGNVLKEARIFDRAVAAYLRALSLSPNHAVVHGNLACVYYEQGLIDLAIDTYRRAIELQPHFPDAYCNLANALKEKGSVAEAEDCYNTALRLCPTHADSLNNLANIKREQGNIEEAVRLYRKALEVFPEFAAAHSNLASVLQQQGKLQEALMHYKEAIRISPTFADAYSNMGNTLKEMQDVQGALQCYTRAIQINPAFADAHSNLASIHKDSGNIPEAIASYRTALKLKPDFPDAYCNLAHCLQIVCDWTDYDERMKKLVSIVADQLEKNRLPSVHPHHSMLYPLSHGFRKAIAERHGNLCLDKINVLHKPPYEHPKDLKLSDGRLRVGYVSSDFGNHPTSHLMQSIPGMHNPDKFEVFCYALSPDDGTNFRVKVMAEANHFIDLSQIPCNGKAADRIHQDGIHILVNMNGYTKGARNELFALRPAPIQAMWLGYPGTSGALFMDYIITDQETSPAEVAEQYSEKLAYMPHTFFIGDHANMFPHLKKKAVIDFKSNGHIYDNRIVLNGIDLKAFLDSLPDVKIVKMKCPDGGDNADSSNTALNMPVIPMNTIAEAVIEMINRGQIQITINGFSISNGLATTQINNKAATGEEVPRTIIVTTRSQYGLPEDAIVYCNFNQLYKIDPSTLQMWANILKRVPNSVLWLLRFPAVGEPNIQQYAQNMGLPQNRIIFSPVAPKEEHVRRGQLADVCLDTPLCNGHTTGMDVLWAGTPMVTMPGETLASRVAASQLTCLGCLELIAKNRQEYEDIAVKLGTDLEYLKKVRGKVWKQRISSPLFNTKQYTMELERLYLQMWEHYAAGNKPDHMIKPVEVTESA
Sequence	fold enrichment
NVLIFPKYQISYSK	3.89
MWSPTVPPKYIIKYK	2.59
TMYEPMYQIKVIAHG	2.91
SNKQDLMPAYQIQYG	3.24

Sample 3 — technique: protein-binding microarray; form: double-stranded DNA, one strand shown; medium: in vitro; tested at: 0.8 µM; setting: whole 60-bp probe, no competitor; direction: higher = stronger binding; shared flanks, not repeated: … GTCTTGATTCGCTTGACGCTGCTG
Target: Centromere-binding protein 1, full length, N-terminal tag (CBF1, Saccharomyces cerevisiae, UniProt P17106, residues 1-351)
Sequence of UniProt P17106 (whole entry, looked up): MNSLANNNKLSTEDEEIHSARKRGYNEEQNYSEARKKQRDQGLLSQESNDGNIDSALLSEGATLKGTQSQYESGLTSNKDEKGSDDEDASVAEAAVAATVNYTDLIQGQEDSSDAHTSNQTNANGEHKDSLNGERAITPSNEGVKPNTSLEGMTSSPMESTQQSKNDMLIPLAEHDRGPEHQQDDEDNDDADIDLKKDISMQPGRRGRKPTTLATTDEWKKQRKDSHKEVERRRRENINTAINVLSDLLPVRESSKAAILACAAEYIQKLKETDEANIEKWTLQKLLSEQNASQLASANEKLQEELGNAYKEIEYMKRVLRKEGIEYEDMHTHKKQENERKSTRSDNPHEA
Oligonucleotide	fluorescence intensity [a.u.]
GAACAACAGGCACGTGGTGGGTGTGCCTGGAGATAG	8930
CTACATGTCCGGCATCACGTGGTTATGATGTAGTTC	12100
GAACAGGAACGTAAGGAGGTGATGGAAGAACAGTAG	527
CTAAGAGAAGACCCCCACGTGCCCTAAAAATAATTC	5590
GAACTTCGTCGTCTTCATGATCACCTTTATTGTTAG	544
TGTACGAAGCTATTCAGGGTGACTATAGTAGTTAGG	529
CTACTTCATTGTAATGAGGTGACTCTATTTAATTTC	504
CTAAGATAAAAAGAGAGCGTGATATAAATGAATTTC	815

Sample 4 — target: vanadate, free oxyanion; technique: microfluidic competitive inhibition; medium: in vitro, cell-free expressed; tested at: not given; direction: lower = stronger binding
Setting: derived from inhibition constants, unchanged parent 676 nM
Starting sequence: PafA, mature enzyme, eGFP fusion (Elizabethkingia meningoseptica, UniProt Q9KJX5); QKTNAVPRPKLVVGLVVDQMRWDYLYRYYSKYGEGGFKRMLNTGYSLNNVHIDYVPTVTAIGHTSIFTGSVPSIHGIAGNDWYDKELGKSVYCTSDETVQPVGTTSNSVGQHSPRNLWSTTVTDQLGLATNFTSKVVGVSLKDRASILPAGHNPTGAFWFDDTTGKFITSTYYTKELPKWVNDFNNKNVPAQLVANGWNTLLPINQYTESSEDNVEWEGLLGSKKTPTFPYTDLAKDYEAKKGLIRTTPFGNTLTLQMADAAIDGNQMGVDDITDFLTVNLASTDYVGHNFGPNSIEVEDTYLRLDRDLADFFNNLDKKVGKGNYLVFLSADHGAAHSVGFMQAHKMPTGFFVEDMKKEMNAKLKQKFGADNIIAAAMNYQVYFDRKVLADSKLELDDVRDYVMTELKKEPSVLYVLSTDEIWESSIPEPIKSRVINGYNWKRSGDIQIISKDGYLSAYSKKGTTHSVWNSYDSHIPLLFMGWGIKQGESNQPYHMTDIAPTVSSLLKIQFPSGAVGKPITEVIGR
Change	oxyanion analog dissociation constant
V12A	674 nM
V327A	643 nM
N379G	1.55 µM
L11V	682 nM
L256V	559 nM
T104V	510 nM

Excerpt of the above (sample 1):
Change	normalised enrichment score
K4H	5.87
K4F	3.98
L7R	0.545
